Measured values pooled from the literature.
Each numbered part is a random draw from the data of one study; scales do not carry over between parts.

Sample 1 — method: RNA Bind-n-Seq; molecule type: RNA; sample: in vitro; tested at: 365 nM; relative to: no-protein control; direction: higher = stronger binding
Target: RNA binding protein fox-1 homolog 2, RRM domain, GST-SBP tag (RBFOX2, Homo sapiens, UniProt O43251-10, residues 100-194)
Notes: natural RNA segment, single round, ends assumed
Residues (chain): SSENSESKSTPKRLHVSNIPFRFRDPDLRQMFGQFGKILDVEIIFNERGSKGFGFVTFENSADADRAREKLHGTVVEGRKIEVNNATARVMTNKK
Under “RBNS enrichment (R)”, `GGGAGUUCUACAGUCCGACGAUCAGCUUUCUGGGAUGUCACAGUCCAACCAGAAACACCCCUCUGUCUAGGACUGCAGUGUGGAGUUCACCUUGGAAGGGCGUUCUAGGUAGGAAGAGCCCGCAGGGCCAUGCUGGAAUUCUCGGGUGCCAA` is recorded as 0.297.
`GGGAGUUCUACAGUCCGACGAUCUGGACAGACCUGGUGUCACCAGUUUUUCCUAGCAUCAGUCCGAACCAUGCGCCCGCCCUGCCCCAACUGUGUGCUGGUCCUGCUGUGGCCGAGGGGACCGGGUGUGUUUGUGGAAUUCUCGGGUGCCAA`: “RBNS enrichment (R)” 0.717.
Under “RBNS enrichment (R)”, `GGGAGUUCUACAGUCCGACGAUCAAGACGUGCUAAUUUAUUGUGGAAUUGGUAGUUUGCUUUUCAUGCCCCUGUCUUCCUUCUCAUGACCAUUUCCCCCUUUCUGUCUGGCUUGCAUUAUUGAUUUCCAGGACUGGAAUUCUCGGGUGCCAA` is recorded as 1.46.
`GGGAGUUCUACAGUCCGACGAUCAAGUGUUUGCUGCGUGGCAGAUUUCCUGUUCUUGUUCGCAGUUUGCCGACUGAAGAGUGUGGGAUUUCCGAGGCCCAGGUGAGCACGUCCAUCUCAGGAGGCGUGGAGGGUGGAAUUCUCGGGUGCCAA` — result for “RBNS enrichment (R)”: 0.959.
`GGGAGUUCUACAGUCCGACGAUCCAAAGGUCGUCUGUCUGCUUUUGAUUGUCUACAUCACAGCAAUCCCUGGGAAUUUCUAUCCAUUUUAAAUGCUGCCGCUUUCAUCUGUUUAGCCAGCACACCCAAUGGUUUGGAAUUCUCGGGUGCCAA`: “RBNS enrichment (R)” 0.212.

Sample 2 — method: aptamer microarray, sandwich; molecule type: DNA with 2'F-ANA; sample: in vitro; tested at: 200 nM; together with: Cy3 exosite-II aptamer, 400 nM; direction: higher = stronger binding
Target: Prothrombin, mature alpha-thrombin (F2, Homo sapiens, UniProt P00734)
Notes: whole 15-mer aptamer, many near background
Under “mean fluorescence intensity”, `GGTTGGTGTGGTTGG (2'F-ANA at 1 4 6 8 10 11 12 13 15)` is recorded as 52.9 a.u.
`GGTTGGTGTGGTTGG (2'F-ANA at 2 7 12)`: “mean fluorescence intensity” 824 a.u.
`GGTTGGTGTGGTTGG (2'F-ANA at 1 3 4 6 9 10 13 14)` — result for “mean fluorescence intensity”: 62 a.u.
For `GGTTGGTGTGGTTGG (2'F-ANA at 2 5 8 10)`, “mean fluorescence intensity” read 43.4 a.u.

Sample 3 — method: RNAcompete; molecule type: RNA; sample: in vitro; tested at: 20 nM; notes: 7-mer, probes averaged, single round; relative to: mean of 7-mers; direction: higher = stronger binding
Target: PABPC1L2, full length, GST fusion (mouse, UniProt A0ABA7IW68)
Construct (chain): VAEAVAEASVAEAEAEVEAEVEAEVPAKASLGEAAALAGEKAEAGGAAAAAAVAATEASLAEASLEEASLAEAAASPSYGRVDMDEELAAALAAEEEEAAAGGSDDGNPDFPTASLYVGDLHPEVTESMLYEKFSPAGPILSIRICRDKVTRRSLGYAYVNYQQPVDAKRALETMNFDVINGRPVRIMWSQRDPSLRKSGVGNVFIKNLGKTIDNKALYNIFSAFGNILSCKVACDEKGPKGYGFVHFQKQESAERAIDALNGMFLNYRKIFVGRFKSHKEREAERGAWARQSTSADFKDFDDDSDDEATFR
The 7-mer Z-score of `CCUCGGA` is reported as -0.393.
`AGUCCGU` gave a 7-mer Z-score of -0.304.
With `CACACCU` the 7-mer Z-score was -0.246.
The 7-mer Z-score of `CCUGUAA` is reported as -0.00652.
`GUGGAAG` has a 7-mer Z-score of -0.0482.
The 7-mer Z-score of `AGCACGC` is reported as -0.112.

Other studies, line by line
With `PhoQ, residues 284 288 289 292 302 303 NLGVHL` the fold induction was 2.85 (PhoP, residues 12 14 15 18 19 AWHSL (Escherichia coli, UniProt P23836); Sort-seq, measured: YFP reporter; E. coli; PhoQ-PhoP variant library, together with: 10 µM Mg2+; relative to: high Mg2+ state, higher = stronger signaling).

Repeated from above (sample 3):
`AGUCCGU` gave a 7-mer Z-score of -0.304.
`GUGGAAG` has a 7-mer Z-score of -0.0482.
